{"data": "Measured values from different studies", "note": "Lines come from different studies, so protocols differ. ± gives the spread as reported."}
{"SMILES": "CN[C@@H]1COc2c(S(=O)(=O)NC(=O)Nc3c4c(cc5c3CCC5)CCC4)cnn2C1", "system": "human, urine", "setting": "oral, 900 mg, 0-48 h", "endpoint": "fraction excreted in urine", "result": 0.181}
{"SMILES": "CC(C)n1c(C2CCNCC2)nc2c([N+](=O)[O-])c(Br)c(Br)cc21", "system": "human, urine", "setting": "oral, 100 mg, median, single dose", "endpoint": "fraction excreted in urine", "result": 0.01}
{"SMILES": "CN(C(=O)C(C)(C)c1cc(C(F)(F)F)cc(C(F)(F)F)c1)c1cnc(N2C[C@H]3COCCN3C[C@H]2CO)cc1-c1ccc(F)cc1[14CH3]", "assay": "LC-MS/MS, AUC-based, item: unchanged compound", "system": "human, male, plasma", "setting": "oral, 120 mg", "endpoint": "fraction of total radioactivity", "result": "31%"}
{"SMILES": "OCc1cc(C(O)CNCCCCCCOCCCCc2ccccc2)ccc1O (stereo not drawn)", "assay": "equilibrium dialysis", "system": "human, plasma", "endpoint": "fraction unbound", "result": 0.066}
{"SMILES": "C[C@@H](N)c1cc(Cl)ccc1Cn1c(=S)[nH]c(=O)c2[nH]ccc21", "system": "human severe renal impairment, urine", "setting": "oral, 2.5 mg single dose, 0-24 h", "how to read": "reference: dose", "endpoint": "fraction excreted unchanged", "result": "21.2%"}
{"SMILES": "CNC(=O)c1ccc(-c2cnc3ncc(Cc4ccc5ncccc5c4)n3n2)cc1F", "assay": "ultrafiltration", "system": "human moderate hepatic function, plasma", "setting": "oral, 200 mg, 3 h post-dose, geometric mean", "endpoint": "fraction unbound", "result": 0.032}
{"SMILES": "C=CC(=O)Nc1cc(Nc2ncc(C(=O)OC(C)C)c(-c3cn(C)c4ccccc34)n2)c(OC)cc1N(C)CCN(C)C", "system": "healthy human, urine", "setting": "oral, 40 mg single dose, arithmetic mean", "endpoint": "fraction of dose excreted", "result": "1.31%"}
{"SMILES": "CCN(CC)CCN(CCNCCc1ccc(O)c2[nH]c(=O)sc12)C(=O)CCOCCc1cccc2ccccc12", "assay": "equilibrium dialysis", "system": "human, plasma", "endpoint": "fraction unbound", "result": 0.046}
{"SMILES": "CC(=O)C(C)n1ncn(-c2ccc(N3CCN(c4ccc(OC[C@H]5CO[C@](Cn6cncn6)(c6ccc(Cl)cc6Cl)O5)cc4)CC3)cc2)c1=O (stereo partly drawn)", "system": "human", "endpoint": "fraction unbound", "result": "0.007 ± 0.003"}
{"SMILES": "Cc1cc(-c2nccc3c2ccn3CC(=O)Nc2ccc(-c3cnccn3)cn2)ccn1", "system": "human, urine", "setting": "oral, 20 mg once daily, day 16, geometric mean", "endpoint": "fraction excreted in urine (fe)", "result": "1.07%"}
{"SMILES": "CCN1CCN(Cc2ccc(Nc3ncc(F)c(-c4cc(F)c5nc(C)n(C(C)C)c5c4)n3)nc2)CC1", "assay": "population PK model", "system": "human, plasma", "setting": "oral", "endpoint": "fraction entering gut compartment", "result": 0.92}
{"SMILES": "CC(C)c1ncc(C(=O)N2CCOC3(CCN(Cc4ccc(F)c(CCNC[C@H](O)c5ccc(O)c6[nH]c(=O)sc56)c4)CC3)C2)s1", "assay": "equilibrium dialysis", "system": "human, plasma", "endpoint": "fraction unbound", "result": 0.081}
{"SMILES": "NCCONC(=O)[C@@H]1CC[C@@H]2CN1C(=O)N2OS(=O)(=O)O", "system": "human male, urine", "setting": "intravenous infusion, 1 g multiple doses, day 9", "endpoint": "fraction excreted in urine (0-8 h)", "result": "86.4%"}
{"SMILES": "CC(C)OC(=O)[C@@H](C)N[P@@](=O)(OC[C@H]1O[C@@H](n2ccc(=O)[nH]c2=O)[C@](C)(Cl)[C@@H]1O)Oc1ccccc1", "system": "human", "setting": "oral, dose not given, tablet", "endpoint": "fraction of dose absorbed via route 1", "result": "67%"}
{"SMILES": "NC[C@@]1(CC(=O)O)[C@@H]2CC[C@H]3C[C@@H]2[C@@H]1C3", "system": "human, severe renal impairment, urine", "setting": "oral, 20 mg single dose, 0-72 h", "endpoint": "fraction excreted in urine", "result": "58.9%"}
{"SMILES": "Cl.[2H]C([2H])([2H])CC(=O)c1cnc(NC(=O)C2CC2)cc1Nc1cccc(-c2ncn(C([2H])([2H])[2H])n2)c1OC", "system": "human, urine", "setting": "oral, 60 mg once daily, nonfasted, multiple doses, mean", "endpoint": "fraction excreted unchanged", "result": "0.43%"}
{"SMILES": "C[C@H]1CN(C(=O)CC#N)[C@]12CCN(c1ncnc3[nH]ccc13)C2", "system": "human, male", "setting": "oral, assumed oral bioavailability 100%", "endpoint": "fraction of drug metabolized", "result": "~25%"}
{"SMILES": "O=C(c1nc2n(n1)[C@H](c1ccccc1)C[C@@H]2F)C1CC1", "system": "human, fed", "setting": "oral, 75 mg single dose, mean", "endpoint": "fraction excreted fe(0-72 h)", "result": "0.22%"}
{"SMILES": "COc1cc(NC(=O)CCN2CCC(OC(=O)Nc3ccccc3-c3ccccc3)CC2)c(Cl)cc1CNC[C@H](O)c1ccc(O)c2[nH]c(=O)ccc12", "assay": "equilibrium dialysis", "system": "human, plasma", "endpoint": "fraction unbound", "result": 0.018}
{"SMILES": "Cn1cc(-c2cn3nccc3c(-c3cnn([C@]4(CC#N)C[C@@H](C#N)C4)c3)n2)cn1", "system": "healthy humans, urine", "setting": "oral, 400 mg once daily, day 10, Japanese cohort, dosing interval", "endpoint": "fraction excreted unchanged in urine", "result": "0.7%"}
{"SMILES": "Cc1ccc(C(=O)NC2CC2)cc1-n1ncc(C(=O)c2cccc(C#N)c2)c1N", "assay": "mass balance study", "system": "human", "endpoint": "fraction excreted renally", "result": "11.7%"}
{"SMILES": "COc1cc(C(=O)NC2CCN(C)CC2)c(F)cc1Nc1ncc(C(F)(F)F)c(Oc2cccc3c2C(=O)N(C)C3)n1", "system": "healthy Japanese humans, urine", "setting": "oral, 200 mg once daily, multiple doses, 0-24 h, geometric mean", "endpoint": "fraction excreted in urine, steady state", "result": "8.5%"}
{"SMILES": "C[C@@H](Oc1ccc(S(C)(=O)=O)cc1C(=O)N1C[C@@H]2C[C@]2(c2cc(C(F)(F)F)on2)C1)C(F)(F)F", "system": "elderly humans, urine", "setting": "oral, 50 mg once daily, 0-24 h, single dose, geometric mean", "endpoint": "fraction excreted in urine", "result": "2.13%"}
{"SMILES": "CCn1c(=O)c2c(nc(/C=C/c3ccc(OC)c(OC)c3)n2C)n(CC)c1=O", "assay": "estimated from MDCK Papp", "system": "MDCK knock-out, human", "setting": "1 µM, 90 min", "endpoint": "fraction absorbed", "result": "100%"}
{"SMILES": "COc1ccc(F)cc1C(=O)NCc1ccc(-c2nn([C@@H](C)C(F)(F)F)c(N)c2C(N)=O)cc1", "system": "human male, urine and feces", "setting": "oral, 200 mg, mass balance", "endpoint": "fraction metabolised by UGT", "result": 0.23}
{"SMILES": "CC(C)(Sc1ccncc1-c1ccc(C#N)c2ccccc12)C(=O)O", "system": "human, urine", "setting": "oral, 2.5 mg, with: febuxostat 20 mg", "endpoint": "fraction excreted in urine (0-24 h)", "result": "1.37%"}
{"SMILES": "CC(=O)N(C)[C@H]1CCN(C(=O)c2cnc3c(c2)C[C@](C)(c2ccc(F)cc2)N3)C1", "system": "male humans, urine", "setting": "oral, 60 mg once daily, multiple dosing, geometric mean", "endpoint": "fraction excreted in urine (0-48 h, steady state)", "result": "57.4%"}
